# Experimental data gathered from unrelated publications.
# Lines come from different studies, so protocols differ. Several values in a cell are separate wells, animals, samples, runs or records.
# DDB1: DNA damage-binding protein 1 (DDB1, Homo sapiens, UniProt Q16531)
# Cereblon/Ikaros: Cereblon/Ikaros (Homo sapiens, UniProt Q13422+Q96SW2)
# TOP2A: DNA topoisomerase 2-alpha (TOP2A, Homo sapiens, UniProt P11388)
# Pteridine reductase 1: Pteridine reductase 1 (Leishmania major, UniProt Q01782)
# MKC1: Mitogen-activated protein kinase MKC1 (MKC1, Candida albicans, UniProt P43068)
# PKN1: Serine/threonine-protein kinase N1 (PKN1, Homo sapiens, UniProt Q16512)
# BEST2: Bestrophin-2a (BEST2, Homo sapiens, UniProt Q8NFU1)
SMILES,target,assay,system,setting,how to read,quantity,result
O=c1c(OS(=O)(=O)[O-])c(-c2ccc(OS(=O)(=O)[O-])c(OS(=O)(=O)[O-])c2)oc2cc(OS(=O)(=O)[O-])cc(OCc3ccc(COc4cc(OS(=O)(=O)[O-])cc5oc(-c6ccc(OS(=O)(=O)[O-])c(OS(=O)(=O)[O-])c6)c(OS(=O)(=O)[O-])c(=O)c45)cc3)c12.[Na+].[Na+].[Na+].[Na+].[Na+].[Na+].[Na+].[Na+],"Neutrophil elastase (ELANE, Homo sapiens, UniProt P08246)",elastin-congo red cleavage,,concentration not given,,duration of inhibition,~12 h
CC(Oc1ccccc1)C(=O)NCc1ccccn1 (stereo not drawn),DDB1,"binding, affinity selection mass spectrometry",,,relative to: other proteins in batch,log fold enrichment,0.194
Nc1ncnc2c1ncn2[C@@H]1O[C@H](COP(=O)(O)CP(=O)(O)OP(=O)(O)O)[C@@H](O)[C@H]1O,"P2X purinoceptor 1 (P2RX1, Homo sapiens, UniProt P51575, D170A)",saturation binding,HEK293,130 nM,,specific binding,574 CCPM and 371 CCPM and 452 CCPM
O=C1CCC(N2C(=O)C=C(Nc3cccc(C(NCCc4ccc(C(F)(F)F)c(Cl)c4)c4ccccc4)c3)C2=O)C(=O)N1 (stereo not drawn),Cereblon/Ikaros,"protein degradation, degrader, HiBiT luminescence",Jurkat,,,Dmax,70%
O=c1nc(SCc2cc(F)cc(C(F)(F)F)c2)nc(SCc2ccc3sccc3c2)[nH]1,TOP2A,ATPase activity,,"3.9 µM, with: ATP 0.025 mM",,ATP hydrolysis rate,0.353 µM/min and 0.363 µM/min
CCCCCCCNCCc1ccc2[nH]cnc2c1,"ATP2A2 (Sus scrofa, UniProt P11607)",,pig microsomes,concentration not given,,ATPase activity,no effect
COc1cc(N2CCC(N3CCN(C)CC3)CC2)ccc1Nc1ncc(Cl)c(Nc2ccccc2P(C)(C)=O)n1,"GID4/ALK (Homo sapiens, UniProt Q8IVV7+Q9UM73)",ternary complex formation,HEK293T,"250 nM, 6 h",relative to: normalised ratio,NanoBRET ratio,1.11 and 0.978 and 0.907
COc1cc(F)ccc1-c1ncnc(Nc2cccc(C[S@](C)(=N)=O)c2)n1,"PHKG2 (Homo sapiens, UniProt P15735)",kinase activity,,"10 µM, with: 10 µM ATP",,remaining activity,98%
CCCCC[C@H](O)/C=C/[C@H]1C(=O)C[C@H](O)[C@@H]1C/C=C\CCCC(=O)O,"PTGDR (Homo sapiens, UniProt Q13258, D262A)",agonist,,0.01953 µM,,activation,74.5%
[O-][S+]1CCCCS1 (stereo not drawn),"SOD1 (Homo sapiens, UniProt P00441, G94A)",target engagement,"SOD1 G93A transgenic mice, brain","subcutaneous, 30 mg/kg twice daily",,SOD1 dimer level,89.3% and 80.2%
Cc1nc(CSc2nc(SCc3ccc(C(C)C)cc3)nc(=O)[nH]2)cs1,TOP2A,decatenation,,"15.6 µM, replicate 2",,decatenated DNA,44.7%
COC(=O)C1CCN(C(=O)c2ccc(N(Cc3ccccc3)Cc3cnc4nc(N)nc(N)c4n3)cc2)CC1,Pteridine reductase 1,,,hDHFR weight 10,"relative to: LmPTR1, LmDHFR over hDHFR, 1.0 selective, 0.0 non-selective",partition index,1
CCN1CCC[C@H]1CNC(=O)c1c(O)c(Cl)cc(Cl)c1OC,"CMKLR1 (Homo sapiens, UniProt Q99788)","β-arrestin recruitment, TANGO luminescence",,concentration not given,relative to: basal luminescence,log2 fold change,0.346
[Zn+2],"Otop1 (Mus musculus, UniProt Q80VM9)","acid-evoked current, inhibitor, whole-cell patch-clamp",HEK293T,"0.1 mM, pH 5.5, unit not given",relative to: current before compound,remaining current,0.445
Oc1ccccc1-c1n[nH]cc1-c1ccnc2ccccc12,MKC1,"kinase binding, MIB/MS competition",Candida albicans lysate,10 µM,"relative to: DMSO, negative = stronger binding",log2 fold change,0.27
COc1ccc(Oc2ccc(CNCc3cnc4nc(N)nc(N)c4n3)cc2)cc1,Pteridine reductase 1,,,hDHFR weight 10,"relative to: LmPTR1, LmDHFR over hDHFR, 1.0 selective, 0.0 non-selective",partition index,0.98
Cc1nc(CSc2nc(SCc3cc(F)cc(C(F)(F)F)c3)nc(=O)[nH]2)cs1,TOP2A,decatenation,,"7.8 µM, replicate 1",,decatenated DNA,100%
O=C(O)c1ccc(Nc2ncc3c(n2)-c2ccc(Cl)cc2C(c2c(F)cccc2F)=NC3)cc1,SAPK3(h),kinase activity,,1 µM,,remaining activity,121%
O=C1Nc2ccc(I)cc2/C1=C/c1cc(Br)c(O)c(Br)c1,"TGM2 (Homo sapiens, UniProt P21980)","enzyme activity, inhibitor",,with: Triton X-100 0.02%,,potency,decreased
CC(C)c1cccc2c(-c3ccccc3)cc(/C=C/c3ccc(C(=O)O)cc3)nc12,"RARA (Homo sapiens, UniProt P10276)","transactivation, antagonist, reporter gene",,"up to 3300 nM, with: 9-cis-retinoic acid at EC80, 180 nM",,antagonist activity,inactive
C=C1CN(S(=O)(=O)c2ccc(C)cc2)CCCN(Cc2ccccc2)CCCN(S(=O)(=O)c2ccc(C)cc2)C1,"Protein transport protein Sec61 subunit alpha isoform 1 (Homo sapiens, UniProt P61619)","Sec61-dependent translocation, inhibitor, refers to: CD4 signal peptide-FLuc reporter",HEK293,"concentration not given, 6 h",relative to: mock,FLuc/RLuc ratio,2.13
CC[C@@H]1[C@H](F)C(=O)N[C@@H]1COc1nccc2cc(C(N)=O)c(OC)cc12,PKN1,"ATP-site probe binding, ActivX profiling",THP-1 cell lysate,"0.01 mM, Lys1 site",,inhibition,8.7%
Nc1ncnc2c1ncn2[C@@H]1O[C@H](C[C@@H](N)CC[C@H](N)C(=O)O)[C@@H](O)[C@H]1O,"O-methyltransferase (Sorghum bicolor, UniProt A0A1B6PFV1)",biolayer interferometry,,with: saturating RSV,,cooperativity factor σ,8.88
CCOc1cccc(C2CC(=O)Nc3c2c(C)nn3-c2ccc3nncn3n2)c1 (stereo not drawn),DDB1,"binding, surface plasmon resonance",,7.5 µM,,SPR response,6.04 RU
NS(=O)(=O)C(F)(F)F,"CA4 (Homo sapiens, UniProt P22748)",ITC,,"concentration not given, 25 °C",,intrinsic binding ΔG,-10.2 kcal/mol
CN(Cc1cnc2nc(N)nc(N)c2n1)c1ccc(C(=O)N[C@@H](CCC(=O)O)C(=O)O)cc1,"Proton-coupled folate transporter (Homo sapiens, UniProt Q96NT5)",transport,transfected cells,"pH 5.5, 37 °C",,uptake,~85%
O=c1nc(SCc2cc(F)cc(C(F)(F)F)c2)nc(SCc2ccc3ccccc3n2)[nH]1,TOP2A,decatenation,,15.6 µM,,mean decatenated DNA,89.5%
COc1cc(C(=O)NS(=O)(=O)c2ccccc2C)ccc1Cc1cn(C)c2ccc(NC(=O)OC3CCCC3)cc12,"LRRC8A/LRRC8C (Homo sapiens, UniProt Q8IWT6+Q8TDW0, M48D/T48D)",whole-cell patch clamp,HCT116 LRRC8-/- transfected,at -100 mV,,Hill coefficient,1.53
CC1(C)CC2(C)OC(=O)NC2(C)c2ccccc21 (stereo not drawn),"DNA (cytosine-5)-methyltransferase 3A, PWWP domain (DNMT3A, Homo sapiens, UniProt Q9Y6K1)","binding, affinity selection mass spectrometry",,,relative to: other proteins in batch,log fold enrichment,-0.161
O=c1ccc2nc3ccc(O[C@@H]4O[C@H](CO)[C@@H](O)[C@H](O)[C@H]4O)cc3oc-2c1,"GBA1 (Homo sapiens, UniProt P04062, R534H)",substrate,,5 nM enzyme,,Vmax,42 pmol/min
O=C(O)c1ccc([N+](=O)[O-])cc1,BEST2,whole-cell patch clamp,HEK293 transiently expressing channel,"concentration not given, membrane potential -100 mV",,current density,-309 pA/pF and -379 pA/pF and -257 pA/pF and -116 pA/pF and -321 pA/pF
O=C1N[C@H](c2cncc(C#Cc3ccccc3)c2)[C@@H](c2ccccc2Cl)O1,"Metabotropic glutamate receptor 5 (Mus musculus, UniProt Q3UVX5)",PET,"mouse, brain","oral, 7.5 mg/kg, 2 h",,receptor occupancy,98%
Cc1nc(CSc2nc(SCc3ccc(C(F)(F)F)cc3)nc(=O)[nH]2)cs1,TOP2A,decatenation,,"15.6 µM, replicate 1",,decatenated DNA,100%
Cc1c[nH]c2nc(Nc3ccc(N4CCN(C)CC4)c(F)c3)nc(-c3cccc(CC#N)c3)c12,PKN1,inhibitor,,,,Hill slope,-0.779
NCCCS(=O)(=O)O,"SLC6A6 (Homo sapiens, UniProt P31641, Y138A)","binding, microscale thermophoresis",,"1.95 µM, room temperature, with: 50 nM labelled protein",higher = more binding,normalised MST signal,-0.0015
Nc1nc2c(ncn2[C@@H]2O[C@H](COP(=O)(O)O)[C@@H](O)[C@H]2O)c(=O)[nH]1,"GUK1 (Homo sapiens, UniProt Q16774, R44A)","enzyme activity, NADH-coupled",,15.62 µM,,reaction rate,-0.839 s⁻¹ and -0.763 s⁻¹ and -0.827 s⁻¹
C=CC(=O)N1CCC[C@@H](n2nc(-c3ccc(Oc4ccccc4)cc3)c3c(N)ncnc32)C1,"TXK (Homo sapiens, UniProt P42681)",,,10 µM,,remaining activity,45.9%
O=c1nc(SCc2cc(F)cc(C(F)(F)F)c2)nc(SCc2cccc(C(F)(F)F)c2)[nH]1,TOP2A,decatenation,,"125 µM, replicate 1",,decatenated DNA,0%
COc1ccc(C(=O)/C=C/c2cccc(-c3cccc(-c4ccc(CN[C@@H](CO)C(N)=O)c(OC)n4)c3C)c2)cc1,"CD274 (Homo sapiens, UniProt Q9NZQ7)","degrader, western blot",HL-60,1 µM,,degradation,< 5%
N#Cc1ccc2c(-c3ccncc3)c(-c3ccc(F)cc3)nn2c1,MKC1,"kinase binding, competitor, MIB/MS competition, refers to: MKC1",Candida albicans cell lysate,10 µM,relative to: DMSO,log2 fold change,0.433
O=c1nc(SCc2cc(F)cc(C(F)(F)F)c2)nc(SCc2ccc3ncsc3c2)[nH]1,TOP2A,decatenation,,"15.6 µM, replicate 1",,decatenated DNA,100%
O=C(COP(=O)(O)O)[C@@H](O)[C@H](O)[C@H](O)COP(=O)(O)O,"NADH-ubiquinone oxidoreductase 75 kDa subunit, mitochondrial (Homo sapiens, UniProt P28331)","thermal proteome profiling, refers to: NDUFS1",HepG2 cell lysate,"concentration not given, 57 over 37 °C, mean",relative to: compound over control,thermal stability ratio,0.517
Clc1ccc(C2(c3ccc(-c4cn[nH]c4)cc3)CCNCC2)cc1,PKN1,inhibitor,,,,Hill slope,-1.09
CCC(C)(NCCc1cc(C(F)(F)F)cc(C(F)(F)F)c1)c1cccc(NC2=CC(=O)N(C3CCC(=O)NC3=O)C2=O)c1 (stereo not drawn),Cereblon/Ikaros,"protein degradation, degrader, HiBiT luminescence",Jurkat,,,Dmax,60%
COc1cc(Nc2nccc(-c3cnn4nc(OC)ccc34)n2)cc(C(F)(F)F)c1,"HIPK1 (Homo sapiens, UniProt Q86Z02)",NanoBRET target engagement,live cells,"concentration not given, no binding",,binding,no binding
NC(N)=S,"Urea transporter 1 (Homo sapiens, UniProt Q13336)",,,,relative to: compound over urea Km,affinity ratio,~10
O=c1nc(SCc2ccc(C(F)(F)F)cc2)nc(SCc2ccc3sccc3c2)[nH]1,TOP2A,decatenation,,7.8 µM,,mean decatenated DNA,100%
O=C(O)C1=CCNCC1,BEST2,whole-cell patch clamp,HEK293 transiently expressing channel,"concentration not given, membrane potential 20 mV",,current density,40 pA/pF and 8.03 pA/pF and 37.9 pA/pF and 82.4 pA/pF and 51.2 pA/pF
O=C(CCCCCCC(=O)Nc1ccccc1)NO,"HDAC8 (Homo sapiens, UniProt Q9BY41)",ITC,Tris-HCl buffer,"concentration not given, 293 K",,binding stoichiometry,1
Nc1ccc(C(=O)O)cc1,BEST2,whole-cell patch clamp,HEK293 transiently expressing channel,"concentration not given, membrane potential -40 mV",,current density,-65.1 pA/pF and -115 pA/pF and -92.9 pA/pF and -146 pA/pF and -32.4 pA/pF and -128 pA/pF
CCCCCCCC(=O)c1cc(OC)c(OC)c(OC)c1CC(=O)OCC,"Bile acid receptor (NR1H4, Homo sapiens, UniProt Q96RI1)","reporter gene, Gal4 hybrid reporter",,10 µM,relative to: vehicle,activation,0.62 fold
